Results gathered from unrelated publications.
Lines come from different studies, so protocols differ. Values joined by “and” are separate records of one study, mostly repeats; a detail may differ. ± marks the error that the study gave. Values after ≈ are worked out from the molar mass of the structure shown.

CCCCNCCc1c[nH]c2cccc(O)c12.O=C(O)/C=C/C(=O)O  head twitch count (C57BL/6J mice; subcutaneous, 30 mg/kg): 5 ± 1.1
CC[C@H](C)[C@H](NC(=O)[C@H](C)NC(=O)[C@H](CCCCN)NC(=O)[C@H](CC(C)C)NC(=O)[C@H](C)NC(=O)[C@@H](NC(=O)[C@H](Cc1c[nH]cn1)NC(=O)[C@H](CC(C)C)NC(=O)[C@@H](NC(=O)[C@@H](NC(=O)[C@H](CCCCN)NC(=O)[C@H](C)NC(=O)[C@H](C)NC(=O)[C@H](CO)NC(=O)[C@H](CCCCN)NC(=O)[C@H](Cc1ccccc1)NC(=O)[C@@H](NC(=O)[C@H](CCCCN)NC(=O)[C@H](CC(C)C)NC(=O)[C@H](Cc1ccccc1)NC(=O)[C@H](CO)NC(=O)[C@H](CCCCN)NC(=O)[C@H](Cc1c[nH]c2ccccc12)NC(=O)[C@H](CCCCN)NC(C)=O)[C@@H](C)O)[C@@H](C)O)C(C)C)[C@@H](C)O)C(=O)N[C@@H](CO)C(=O)N[C@@H](CO)C(N)=O  MIC range (Staphylococcus aureus; ATCC 29213): 8 µg/mL (≈ 2.73 µM)
O=C(O)/C=C/C(=O)O.Oc1cccc2[nH]cc(CCNC3CCCCC3)c12  distance travelled (C57BL/6J mice; subcutaneous, 3 mg/kg, 30 min): 2390 ± 347 cm
CC[C@H](C)[C@@H]1NC(=O)[C@@H]2CCCN2C(=O)[C@H](CC(C)C)NC(=O)[C@H](CC(C)C)NC(=O)CNC(=O)[C@@H](NC(=O)[C@@H](NC(=O)[C@H](CC(=O)O)NC(=O)CNC(=O)[C@@H](NC(=O)[C@H](C)NC(=O)CNC(=O)[C@H](CCCCN)NC(=O)[C@H](CC(C)C)NC(=O)[C@H](CC(C)C)NC(=O)[C@H](CCCCN)NC(=O)CNC(=O)[C@@H](NC(=O)[C@@H](N)CC(C)C)C(C)C)C(C)C)C(C)C)CSSC[C@@H](C(=O)O)NC1=O  log2 fold change (RNA-seq, refers to: Pgf mRNA; mouse traumatic brain injury, frontal cortex and hippocampus; dose not given; baseline: TBI plus compound vs TBI): -1.78
CCNCCc1c[nH]c2cccc(O)c12.CCNCCc1c[nH]c2cccc(O)c12.O=C(O)CCC(=O)O  head twitch response (C57BL/6J mice; subcutaneous, 0.3 mg/kg): 7.8 ± 0.8 count/30 min
COc1cc(CCC[P+](c2ccccc2)(c2ccccc2)c2ccccc2)c(OC)c2c1OCO2.[I-]  TGI (U-251; SRB): -4.76 log M
C[C@H]1O[C@@H](O[C@H]2CC[C@@]3(C)[C@@H](CC[C@]4(C)[C@@H]3C=C[C@]35OC[C@@]6(CCC(C)(C)C[C@H]63)[C@@H](O)C[C@]54C)[C@]2(C)CO)[C@H](O)[C@@H](O[C@@H]2O[C@H](CO)[C@@H](O)[C@H](O)[C@H]2O)[C@H]1O  mRNA level (refers to: ACC-1; chronic-plus-binge ethanol-fed mice, AAV8-TBG-Null, liver; dose not given, high dose, unit not given; baseline: AAV8-TBG-Null ethanol group): 0.286 and 0.292 and 0.272 and 0.338 and 0.293 and 0.33
COc1c(CCC[P+](c2ccccc2)(c2ccccc2)c2ccccc2)cc2c(c1OC)OCO2.[I-]  GI50 (RXF 393; SRB): -5.69 log M
CN1CCN(S(=O)(=O)c2cc([N+](=O)[O-])ccc2N(CCOS(C)(=O)=O)CCOS(C)(=O)=O)CC1  EFS delay (T-C) (NSG mice, sample DC PDX; intraperitoneal, 25 mg/kg weekly x3; baseline: vehicle): > 47.7 days
